Published values gathered from unrelated publications.
Parts stem from different laboratories: compare values within a part only. Changes are numbered by the printed parent chain.

Block 1
Target: Fragile X messenger ribonucleoprotein 1, C-terminal low-complexity region (Fmr1, Mus musculus, UniProt P35922)
Method: RNA Bind-n-Seq
Form: RNA
Medium: in vitro
Tested at: 200 nM
Notes: whole 134-nt RNA, ends assumed
Added: 150 mM KCl
Baseline: input library
Direction: higher = stronger binding
Shared flanks, not repeated: GGGAGUUCUACAGUCCGACGAUC … UGGAAUUCUCGGGUGUCAAGG
The log2 enrichment of `AAGUCCUGUGCUACACAUCGUAUGUACCGAAUCGGGGAAAGGGAAAGGGGAAAGGGGAAAGUAUUAUGUUACGCCGUUCGGAUCUGCACU` is reported as 0.281.
With `CCUCAAGUCCUGUGCUACACAUCGUAUGUACCGAAUCGGAAGGAAGGGGAAGGAAAGUAUUAUGUUACGCCGUUCGGAUCUGCACUUCCA` the log2 enrichment was -0.112.
For `UAUUCCAAUGUCUGUGGGAAUAAUUGACACAAGGACGAAUCCAAGCCAGUUAAAUGCGGUUGAAUUUCUGUGGGACCCAGCAAAACGCAC`, the log2 enrichment was -0.149.
The log2 enrichment of `UGGCCCUGGUGGCAUGCGGGGAGGAAGAGGUGGCCUCAUGGAUCGUGGUGGUCCCGGUGAAAUGUUCAGAGGUGGCCGUGGUGGAGACAG` is reported as -0.173.
`CCUGUGCUACACAUCGUAUGUACCGAAUCGGGGAAAAAGGGGUUUUUUUGGGGUUUGGGGAAAGUAUUAUGUUACGCCGUUCGGAUCUGC` gave a log2 enrichment of 0.463.
`GUCCUGUGCUACACAUCGUAUGUACCGAAUCGGGUUUUUGGGUUUUUGGGUUUUUGGGGAAAGUAUUAUGUUACGCCGUUCGGAUCUGCA` gave a log2 enrichment of 0.526.
With `GUCCUGUGCUACACAUCGUAUGUACCGAAUCGGGUUUGGGUUUUUGGGUUUUUUUGGGAAAGUAUUAUGUUACGCCGUUCGGAUCUGCAC` the log2 enrichment was 0.282.
With `UUGAACAUCUGCAGGAAAAGAGGCGAGAGGGCACUUUGAGAGUGGAUACCUACACUCUAGUGCAGCCUGAGGCAGAAGACCAUGUUGAGA` the log2 enrichment was -1.18.
With `CACAGACAACACGCACCCACACAGACACAGAGGGAAGGGGUUGGAAUGGGGACAGGGUGCACAGCAGGGCGGGGUAGGACCCCAGCCCCU` the log2 enrichment was 1.22.
`CACAGACGACACGCACCCACACAGACACAGAGGGAAGGGGUUGGGAUGGGGACAGGGUGCACAGCAGGGCGGGGUAGGACCCCAGCCCCU` has a log2 enrichment of 1.29.
With `UUGUCUUCUGAGAUGUUGGGCCCCUCUUGGGAUGGAGAUGAAGCAGAAUCCACUGGUGAAAUCAUUAGACUUGGAGACACAGCACACACC` the log2 enrichment was 0.238.
The log2 enrichment of `ACCAUGCAUGUGGGCAUCUUUGGGAAGUGGGGCAAGGGGGGGAUAGGGAGGGGGGUAACACUUUGGGAACAGGUGGUCCCAGGUCGUUUC` is reported as 0.785.
With `CCUGUGCUACACAUCGUAUGUACCGAAUCGGGGAAAGGGGAAAAAAAGGGGAAAAAGGGGAAAGUAUUAUGUUACGCCGUUCGGAUCUGC` the log2 enrichment was -0.0735.
`CUGUGCUACACAUCGUAUGUACCGAAUCGGGUUUUUUUGGGUUUUUUUGGGGUUUUUUUGGAAAGUAUUAUGUUACGCCGUUCGGAUCUG` gave a log2 enrichment of -0.607.

Block 2
Target: Sal-like protein 4, full length isoform A (SALL4, Homo sapiens, UniProt Q9UJQ4, residues 1-1053)
Chain of UniProt Q9UJQ4 (whole entry, looked up): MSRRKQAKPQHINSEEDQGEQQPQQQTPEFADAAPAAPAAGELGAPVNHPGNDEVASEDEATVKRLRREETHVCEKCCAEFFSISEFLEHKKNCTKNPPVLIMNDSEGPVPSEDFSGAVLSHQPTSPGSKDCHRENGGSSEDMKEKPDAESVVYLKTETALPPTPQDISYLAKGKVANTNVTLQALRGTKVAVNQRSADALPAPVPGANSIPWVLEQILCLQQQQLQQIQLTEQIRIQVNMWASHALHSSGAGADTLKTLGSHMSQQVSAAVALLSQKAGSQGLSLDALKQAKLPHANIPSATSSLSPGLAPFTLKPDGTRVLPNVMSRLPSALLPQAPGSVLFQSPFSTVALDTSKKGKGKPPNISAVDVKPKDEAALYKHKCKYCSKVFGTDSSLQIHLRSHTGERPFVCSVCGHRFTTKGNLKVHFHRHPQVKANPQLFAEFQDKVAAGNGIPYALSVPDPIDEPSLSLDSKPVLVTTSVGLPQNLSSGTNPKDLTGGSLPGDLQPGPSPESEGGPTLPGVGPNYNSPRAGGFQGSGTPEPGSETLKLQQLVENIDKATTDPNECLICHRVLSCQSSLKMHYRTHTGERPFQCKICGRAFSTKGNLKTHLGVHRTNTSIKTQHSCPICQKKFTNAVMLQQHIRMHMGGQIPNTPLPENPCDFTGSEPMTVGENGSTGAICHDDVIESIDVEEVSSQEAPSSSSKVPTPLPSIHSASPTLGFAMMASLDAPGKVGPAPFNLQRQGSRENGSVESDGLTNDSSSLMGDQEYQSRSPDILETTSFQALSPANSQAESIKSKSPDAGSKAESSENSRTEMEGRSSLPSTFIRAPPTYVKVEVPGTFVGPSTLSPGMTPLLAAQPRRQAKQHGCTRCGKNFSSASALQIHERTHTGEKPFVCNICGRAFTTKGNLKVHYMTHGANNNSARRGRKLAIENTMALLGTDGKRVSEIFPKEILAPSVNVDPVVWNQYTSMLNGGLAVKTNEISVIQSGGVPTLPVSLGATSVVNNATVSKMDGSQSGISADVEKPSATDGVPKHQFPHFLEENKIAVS
Method: universal PBM
Form: double-stranded DNA, one strand shown
Medium: in vitro
Tested at: 600 nM
Notes: 8-mer, flanks averaged, mean of replicates
Direction: higher = stronger binding
With `ACATTGCA` the E-score was 0.09.
For `ATGAATTA`, the E-score was 0.377.
`CATCTGAG` has an E-score of -0.107.
The E-score of `AATGTCCG` is reported as -0.025.
With `GAACAAGC` the E-score was 0.0283.
`AGCTCTCA` has an E-score of -0.153.
With `AGTCTAGG` the E-score was 0.0333.
With `CGATCAAG` the E-score was -0.0605.
The E-score of `CCTATGCC` is reported as -0.00668.
The E-score of `CCGCAGGA` is reported as -0.299.
For `ACGCCCCC`, the E-score was -0.308.
The E-score of `GTGAATAA` is reported as 0.233.
With `AGAGGGCC` the E-score was -0.235.
With `ATATTGAT` the E-score was 0.396.
With `AGCATAAG` the E-score was 0.0951.
`GGAAAGGA` has an E-score of -0.0824.
`ACAGCGGT` gave an E-score of -0.117.
The E-score of `CCATCCGG` is reported as -0.301.

Block 3
Target: ABI1, truncated, D143A, DHFR fusion (Arabidopsis thaliana)
Method: DHFR PCA, deep sequencing
Medium: yeast
Notes: methotrexate growth selection, single substitutions
Added: (+)-ABA 58 µM
Baseline: wild-type fitted maximum
Direction: higher = stronger binding
Starting sequence: PYL1, truncated, DHFR fusion (Arabidopsis thaliana); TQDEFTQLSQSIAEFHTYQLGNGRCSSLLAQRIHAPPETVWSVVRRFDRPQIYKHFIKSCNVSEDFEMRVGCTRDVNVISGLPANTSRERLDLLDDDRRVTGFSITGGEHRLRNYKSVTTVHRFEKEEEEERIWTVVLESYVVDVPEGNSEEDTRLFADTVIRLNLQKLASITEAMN; partner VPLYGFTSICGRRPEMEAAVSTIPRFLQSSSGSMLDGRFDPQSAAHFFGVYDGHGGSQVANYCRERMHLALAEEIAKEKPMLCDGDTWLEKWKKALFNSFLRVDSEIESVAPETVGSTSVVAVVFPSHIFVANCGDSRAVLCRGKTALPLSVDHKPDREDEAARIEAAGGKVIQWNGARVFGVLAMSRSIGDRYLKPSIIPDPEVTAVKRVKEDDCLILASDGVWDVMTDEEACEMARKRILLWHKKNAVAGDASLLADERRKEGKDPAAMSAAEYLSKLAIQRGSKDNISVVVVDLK
Under “relative binding score”, `G107E` is recorded as 66.7%.
`T101R`: “relative binding score” -0.0194%.
`T160P` — result for “relative binding score”: -0.138%.
For `G21Y`, “relative binding score” read 77.7%.
Under “relative binding score”, `V161E` is recorded as 1%.
For `R163W`, “relative binding score” read 24.8%.
For `L166H`, “relative binding score” read 64%.
`F15Q` — result for “relative binding score”: 42.2%.
Under “relative binding score”, `S63W` is recorded as 49.8%.
For `H34S`, “relative binding score” read 87.2%.
For `V118H`, “relative binding score” read 85.6%.
For `E147H`, “relative binding score” read 83.5%.
`F66H`: “relative binding score” 73.1%.
`P50Y` — result for “relative binding score”: -3.79%.
`V43R`: “relative binding score” 16%.

Block 4
Target: Histone acetyltransferase KAT6A, winged helix 1, GST fusion (KAT6A, Homo sapiens, UniProt Q92794, residues 1-85)
Method: protein binding microarray
Form: double-stranded DNA, one strand shown
Medium: in vitro
Tested at: not given
Notes: 8-mer, flanks averaged, mean of 2 arrays, mostly near background
Baseline: not given
Direction: higher = stronger binding
Target sequence (chain): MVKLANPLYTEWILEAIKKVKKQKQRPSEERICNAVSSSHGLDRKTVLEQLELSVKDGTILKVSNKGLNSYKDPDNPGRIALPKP
`CTAGATAG` gave an E-score of -0.11.
The E-score of `GTATGGAA` is reported as -0.135.
`AGAAAAAG` has an E-score of -0.195.
`AGAGTATA` has an E-score of -0.143.
`GACGACAA` has an E-score of -0.234.
For `ACCGATCT`, the E-score was 0.104.
The E-score of `GAGACCGC` is reported as 0.3.
`CCCCGACG` has an E-score of 0.42.
With `AGGCACTC` the E-score was -0.0933.
With `CGGTGCCA` the E-score was 0.187.
For `AACATCTA`, the E-score was -0.0886.
`GGTTAGGA` has an E-score of -0.168.
With `GCTATTCC` the E-score was -0.0257.
`ACCCGAGT` gave an E-score of 0.151.
`GGGTCATA` gave an E-score of -0.0355.
For `CCGCTTAG`, the E-score was 0.285.
With `ACACCGAC` the E-score was 0.242.
`CAGACTAG` has an E-score of -0.129.
For `ACCATCAG`, the E-score was -0.0104.
With `AGACGCAG` the E-score was -0.114.
The E-score of `ACGATGAC` is reported as 0.0322.
With `CTTATGCC` the E-score was -0.0853.
`ACTCGGAG` has an E-score of -0.082.
`AGGTACAT` gave an E-score of -0.116.

Block 5
Target: CCNB3, cyclin fold, Cln2 fusion (human)
Method: yeast growth competition, sequencing
Medium: yeast
Notes: weak parent motif
Baseline: not given
Direction: higher = stronger binding
Starting sequence: CDAN1 docking peptide (human); RGARSQLFPPTEA; partner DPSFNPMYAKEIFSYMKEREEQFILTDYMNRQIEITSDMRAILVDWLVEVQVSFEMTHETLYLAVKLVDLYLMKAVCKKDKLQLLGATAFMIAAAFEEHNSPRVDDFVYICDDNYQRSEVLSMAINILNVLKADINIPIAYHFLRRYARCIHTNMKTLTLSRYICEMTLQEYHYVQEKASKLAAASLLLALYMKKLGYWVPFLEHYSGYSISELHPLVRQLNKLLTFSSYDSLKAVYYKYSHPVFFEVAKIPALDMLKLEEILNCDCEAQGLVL
`RGARSQLAPPTEA [F8A]` — result for “normalised enrichment score”: 0.231.
Under “normalised enrichment score”, `RGARSQLFPPAEA [T11A]` is recorded as 0.128.
`RGARSQLFPATEA [P10A]`: “normalised enrichment score” 0.264.
Under “normalised enrichment score”, `RGARSQLFAPTEA [P9A]` is recorded as 0.124.
For `RGARSQLFPPTAA [E12A]`, “normalised enrichment score” read 0.299.
For `RGAASQLFPPTEA [R4A]`, “normalised enrichment score” read -0.213.

Block 6
Target: Interferon regulatory factor 7, full length, phosphomimetic (IRF7, Homo sapiens, UniProt Q92985, residues 1-503, S471D/S472D/S475D/S476D/S477D/S483D/S484D/S487D)
Chain of UniProt Q92985 (whole entry, unmodified, looked up): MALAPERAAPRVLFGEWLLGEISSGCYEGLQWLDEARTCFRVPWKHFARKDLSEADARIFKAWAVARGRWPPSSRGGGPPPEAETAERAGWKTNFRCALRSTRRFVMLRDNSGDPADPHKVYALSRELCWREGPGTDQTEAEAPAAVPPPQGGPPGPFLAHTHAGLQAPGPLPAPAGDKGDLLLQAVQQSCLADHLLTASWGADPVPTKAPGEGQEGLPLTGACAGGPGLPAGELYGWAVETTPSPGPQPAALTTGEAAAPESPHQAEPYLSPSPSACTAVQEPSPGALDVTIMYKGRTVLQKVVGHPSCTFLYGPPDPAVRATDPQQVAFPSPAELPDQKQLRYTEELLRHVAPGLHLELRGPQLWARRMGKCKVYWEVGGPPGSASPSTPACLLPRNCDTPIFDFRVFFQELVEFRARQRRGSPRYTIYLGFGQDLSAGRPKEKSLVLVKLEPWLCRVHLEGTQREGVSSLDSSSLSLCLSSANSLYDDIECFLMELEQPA
Method: protein-binding microarray
Form: double-stranded DNA, one strand shown
Medium: in vitro
Tested at: 2200 nM top
Notes: 60-bp whole probe
Added: salmon DNA 0.4 mg/ml
Baseline: random background probes
Direction: higher = stronger binding
Shared flanks, not repeated: GCCTAGCAC … GTCTTGATTCGCTTGACGCTGCTG
`GAAATTCTCATTTCCAATTAGTGCTAG` — result for “fitted relative affinity”: 1.56 z-score.
For `GACGTTTTCGGGTTTCGAGACGTGCTA`, “fitted relative affinity” read 8.83 z-score.
For `CCATGTTGCAGACTCGAAGGGTGCTAG`, “fitted relative affinity” read 0.414 z-score.
Under “fitted relative affinity”, `TCATCCCTAATTCTGATACTGTGCTAG` is recorded as 1.56 z-score.
For `TTAGGTTTCGGACTGGGTTCGTGCTAG`, “fitted relative affinity” read 3.32 z-score.
`TTAGGTATCGGGACTGGGTCAGTGCTA` — result for “fitted relative affinity”: -0.522 z-score.
For `GACGGACTGGGTAACGGGACGTGCTAG`, “fitted relative affinity” read -1.12 z-score.
Under “fitted relative affinity”, `TCACTTTTCAGTCCCCTACTGTGCTAG` is recorded as 3.97 z-score.
`TTAGGACTGGGCTTTCGGTTAGTGCTA`: “fitted relative affinity” 2.35 z-score.
`TCACACATGCATCTCCCACTGTGCTAG`: “fitted relative affinity” 1.69 z-score.
`GACGGTATCCTACTGCGGACGTGCTAG`: “fitted relative affinity” 0.264 z-score.
For `GACAATTTCAGTTCCGAGACGTGCTAG`, “fitted relative affinity” read 1.86 z-score.
`TCAACTTTCCAAAACATACTGTGCTAG`: “fitted relative affinity” 1.25 z-score.
`TTTTGCTTTCTTTTATGCTCGTGCTAG` — result for “fitted relative affinity”: 6.27 z-score.
Under “fitted relative affinity”, `TTAGGACTGCTTCCCCTTTAGTGCTAG` is recorded as 1.33 z-score.
`TGTCTGTCTGTCACCCGGACGTGCTAG`: “fitted relative affinity” 0.607 z-score.
Under “fitted relative affinity”, `TTATGACTGGGGTTTCGGTTAGTGCTA` is recorded as 3.89 z-score.
For `TACAGGTTCTCTTTTATTTTGTGCTAG`, “fitted relative affinity” read 1.15 z-score.
`GACGAACCGAGACTGGAGACGTGCTAG` — result for “fitted relative affinity”: 0.123 z-score.

Further values, each from its own experiment
With `PhoQ, residues 284 288 289 292 302 303 SNSSNI` the fold induction was 0.893 (PhoP, residues 12 14 15 18 19 NHFRA (Escherichia coli, UniProt P23836); Sort-seq, item: YFP reporter; E. coli; PhoQ-PhoP variant library, added: 10 µM Mg2+; baseline: high Mg2+ state, higher = stronger signaling).
